Published values gathered from unrelated publications.
Parts stem from different laboratories: compare values within a part only. Substitutions count along the parent as printed.

Set 1 — technique: DHFR PCA, dose-response; matrix: yeast; setting: Hill fit, not affinity; with: (+)-ABA, dose series; reading: lower = more sensitive
Target: ABI1, truncated, D143A, DHFR fusion (Arabidopsis thaliana, UniProt P49597)
Parent: PYL1, truncated, DHFR fusion (Arabidopsis thaliana, UniProt Q8VZS8); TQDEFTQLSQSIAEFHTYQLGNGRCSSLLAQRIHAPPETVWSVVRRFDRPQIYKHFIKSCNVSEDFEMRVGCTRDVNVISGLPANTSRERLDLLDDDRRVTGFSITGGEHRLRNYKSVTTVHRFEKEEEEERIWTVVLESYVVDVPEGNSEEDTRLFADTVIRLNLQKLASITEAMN
| Substitution | ABA EC50 [µM] |
| --- | --- |
| R24Q | 2.69 |
| N77T | 2.26 |
| T120S | 2.26 |
| K126C | 1.39 |
| G108C | 1490 |
| Q2V | 9.09 |
| H110W | 3.39 |
| S104W | 1510 |

Set 2 — technique: universal PBM; form: double-stranded DNA, one strand shown; matrix: in vitro; concentration: not given; reading: higher = stronger binding
Target: Sal-like protein 4, full length isoform B (SALL4, Homo sapiens, UniProt Q9UJQ4-2, residues 1-616)
Setting: 8-mer, flanks averaged, mean of replicates
| Oligonucleotide | E-score |
| --- | --- |
| GGTTTAAC | 0.0169 |
| GTATTAAA | 0.368 |
| ATCGCCAC | -0.0126 |
| CCTACCAA | 0.0179 |
| AAGCACGG | -0.298 |
| AGTGATAT | 0.227 |
| GACATGAC | -0.102 |
| AGAGTATC | 0.124 |

Set 3 — effect on: enzyme activity; mode: inhibitor; concentration: 0.5 µM; reference: control
Target: Mitogen-activated protein kinase kinase kinase 2 (MAP3K2, Homo sapiens, UniProt Q9Y2U5)
Chain of UniProt Q9Y2U5 (whole entry, looked up): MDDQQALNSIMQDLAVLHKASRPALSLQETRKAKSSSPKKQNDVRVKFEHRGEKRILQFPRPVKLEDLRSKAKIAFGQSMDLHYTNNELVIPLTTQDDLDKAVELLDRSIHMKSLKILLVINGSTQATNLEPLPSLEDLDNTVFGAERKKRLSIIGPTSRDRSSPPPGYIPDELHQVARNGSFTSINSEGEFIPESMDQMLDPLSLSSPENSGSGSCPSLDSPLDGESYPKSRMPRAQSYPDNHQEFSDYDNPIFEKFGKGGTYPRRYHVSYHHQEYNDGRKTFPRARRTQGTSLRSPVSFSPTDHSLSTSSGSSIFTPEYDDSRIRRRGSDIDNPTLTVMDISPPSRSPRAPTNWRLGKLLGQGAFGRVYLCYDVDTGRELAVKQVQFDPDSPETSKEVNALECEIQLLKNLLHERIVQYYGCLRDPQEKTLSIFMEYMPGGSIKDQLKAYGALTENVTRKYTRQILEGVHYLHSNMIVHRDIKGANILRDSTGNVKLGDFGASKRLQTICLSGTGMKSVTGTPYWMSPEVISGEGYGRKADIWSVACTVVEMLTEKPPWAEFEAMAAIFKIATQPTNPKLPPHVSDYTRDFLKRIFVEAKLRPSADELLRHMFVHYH
| Structure (SMILES) | remaining activity [%] |
| --- | --- |
| Cc1cccc(-c2[nH]c(C(C)(C)C)nc2-c2ccc3c(c2)OCO3)n1 | 99.9 |
| Cc1ccc(NC(=O)c2ccc(CN3CCN(C)CC3)cc2)cc1Nc1nc(-c2cccnc2)cs1 | 102 |
| CCOC(=O)c1c(C)[nH]c(/C=C2\C(=O)Nc3ccccc32)c1C | 108 |
| Oc1ccc(-c2nc(-c3ccncc3)c(-c3ccc(F)cc3)[nH]2)cc1 | 95 |
| Cc1nc(-c2ccccc2)c(-c2ccncc2)o1 | 102 |
| CC(C)[C@H](CO)Nc1nc(Nc2cc(N)cc(Cl)c2)c2ncn(C(C)C)c2n1 | 83.1 |
| O=S(=O)(c1cccc2cnccc12)N1CCCNCC1 | 77.8 |
| O=C(CCCc1ccc(-c2ccccc2F)cc1)Nc1ccc(O)cc1 | 89.1 |
| COc1cc2ncnc(Nc3ccc(Oc4ccccc4)cc3)c2cc1OC | 102 |
| N#CC(C#N)=C(N)/C(C#N)=C/c1ccc(O)cc1 | 102 |
| CO[C@H]1C[C@@H]2CC[C@@H](C)[C@@](O)(O2)C(=O)C(=O)N2CCCC[C@H]2C(=O)O[C@H]([C@H](C)C[C@@H]2CC[C@@H](O)[C@H](OC)C2)CC(=O)[C@H](C)/C=C(\C)[C@@H](O)[C@@H](OC)C(=O)[C@H](C)C[C@H](C)/C=C/C=C/C=C/1C | 94.8 |
| COc1ccc(OC)c2c(=S)c3ccccc3[nH]c12 | 101 |
| CNC(=O)c1cc(Oc2ccc(NC(=O)Nc3ccc(Cl)c(C(F)(F)F)c3)cc2)ccn1 | 109 |
| NCCNc1ncc(C(N)=O)c(Nc2cccc(C(F)(F)F)c2)n1 | 87 |
| O=c1c2ccccc2[nH]c(=S)n1CCN1CCC(=C(c2ccc(F)cc2)c2ccc(F)cc2)CC1 | 99.6 |
| Nc1[nH]nc2nc3ccccc3nc12 | 92.6 |

Set 4 — effect on: binding; technique: radioligand binding; concentration: 10 µM
Target: D(1A) dopamine receptor (DRD1, Homo sapiens, UniProt P21728)
Chain of UniProt P21728 (whole entry, looked up): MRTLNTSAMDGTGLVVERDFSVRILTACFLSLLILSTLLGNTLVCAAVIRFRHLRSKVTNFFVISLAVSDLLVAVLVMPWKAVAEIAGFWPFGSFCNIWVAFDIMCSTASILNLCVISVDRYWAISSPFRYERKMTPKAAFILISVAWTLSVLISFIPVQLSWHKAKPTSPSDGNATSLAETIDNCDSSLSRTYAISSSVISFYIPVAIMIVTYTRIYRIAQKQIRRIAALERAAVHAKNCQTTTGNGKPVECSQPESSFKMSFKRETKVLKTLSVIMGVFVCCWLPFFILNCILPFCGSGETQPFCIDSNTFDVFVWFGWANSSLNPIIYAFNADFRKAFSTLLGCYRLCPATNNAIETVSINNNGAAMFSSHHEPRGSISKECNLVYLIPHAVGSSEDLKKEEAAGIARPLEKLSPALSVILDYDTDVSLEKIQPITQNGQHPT
| SMILES | inhibition [%] |
| --- | --- |
| Cc1nc(C2CCN(C(=O)c3ccc(OC(F)(F)F)cc3N)CC2)c2ncc(N3CCN(C)CC3)cc2n1 | 2.66 |
| O=C(NC[C@@H]1[C@H]2CN(C(=O)OCc3cc(C(F)(F)F)cc(C(F)(F)F)c3)C[C@@H]12)c1ccc2[nH]nnc2c1 | 8.68 |
| CCCOc1ccc([C@H]2[C@H](C(=O)O)[C@@H](c3ccc4c(c3)OCO4)CN2CC(=O)Nc2c(CC)cccc2CC)cc1 | 17.3 |
| CCOC(=O)c1cc2cc(-c3cc(C(=O)NCc4ccc(C(=O)O)cc4)nn3C)ccc2[nH]1 | -5.02 |
| Cc1c[nH]c2nccc(Oc3c(F)cc(Nc4cc(Cl)nc(N)n4)cc3F)c12 | 16.1 |
| COc1cccc(CNC(=O)c2nc3scc(COCc4ccc(C(=O)O)cc4)c3c(=O)[nH]2)c1 | -6.24 |
| COCc1nc2cnc3cc(-c4c(C)noc4C)c(OC[C@H]4CCNC4)cc3c2n1[C@H](C)c1ccccc1 | 2.89 |
| O=C(Nc1cnc(Oc2ccc(F)cc2)nc1)N1CCc2ncccc2[C@@H]1c1ccc(F)cc1 | 23.7 |
| Cc1nccc(COC(=O)N2C[C@@H]3[C@@H](CNC(=O)c4ccc5[nH]nnc5c4)[C@@H]3C2)n1 | -9.63 |
| Nc1c(C(=O)NCc2ccc(C(=O)NCCCC3CCCCC3)cc2)cnn1-c1ccccc1 | -5.64 |
| O=C1c2ccc(Nc3ccc(F)cc3F)cc2CCc2ccc(OC[C@H](O)CO)cc21 | 5.83 |
| O=C(Nc1ccc(-n2nc(-c3cccnc3)cc2C(F)(F)F)cn1)c1ccc(-c2ccccc2)c(F)c1 | 4.32 |
| C[C@@H]1CN(c2cc(-c3nn(C)c4ccc(OC5(C)CC5)cc34)ncn2)C[C@H](C)O1 | -26.6 |
| Cc1nc(Cc2cccc(C(F)(F)F)c2)sc1-c1ccc(C(N)=O)nc1 | -6.03 |
| CNC(=O)Nc1ccc2c(c1)[C@]1(CC2)OC(=O)N(CC(=O)N(Cc2ccc(F)cc2)[C@@H](C)C(F)(F)F)C1=O | 0.29 |

For quick reference, copied from above (set 4):
| SMILES | inhibition [%] |
| --- | --- |
| Cc1nc(Cc2cccc(C(F)(F)F)c2)sc1-c1ccc(C(N)=O)nc1 | -6.03 |
| Nc1c(C(=O)NCc2ccc(C(=O)NCCCC3CCCCC3)cc2)cnn1-c1ccccc1 | -5.64 |
| CCOC(=O)c1cc2cc(-c3cc(C(=O)NCc4ccc(C(=O)O)cc4)nn3C)ccc2[nH]1 | -5.02 |
| COCc1nc2cnc3cc(-c4c(C)noc4C)c(OC[C@H]4CCNC4)cc3c2n1[C@H](C)c1ccccc1 | 2.89 |
| Cc1nc(C2CCN(C(=O)c3ccc(OC(F)(F)F)cc3N)CC2)c2ncc(N3CCN(C)CC3)cc2n1 | 2.66 |
| C[C@@H]1CN(c2cc(-c3nn(C)c4ccc(OC5(C)CC5)cc34)ncn2)C[C@H](C)O1 | -26.6 |
| O=C(Nc1cnc(Oc2ccc(F)cc2)nc1)N1CCc2ncccc2[C@@H]1c1ccc(F)cc1 | 23.7 |
